Measured values from different studies.
Lines come from different studies, so protocols differ. “And” joins repeats or separate records; there may be more than shown. ± marks the error that the study gave.
cyp121: Mycocyclosin synthase (cyp121, Mycobacterium tuberculosis, UniProt P9WPP7)
Chain of UniProt P9WPP7 (whole entry, looked up): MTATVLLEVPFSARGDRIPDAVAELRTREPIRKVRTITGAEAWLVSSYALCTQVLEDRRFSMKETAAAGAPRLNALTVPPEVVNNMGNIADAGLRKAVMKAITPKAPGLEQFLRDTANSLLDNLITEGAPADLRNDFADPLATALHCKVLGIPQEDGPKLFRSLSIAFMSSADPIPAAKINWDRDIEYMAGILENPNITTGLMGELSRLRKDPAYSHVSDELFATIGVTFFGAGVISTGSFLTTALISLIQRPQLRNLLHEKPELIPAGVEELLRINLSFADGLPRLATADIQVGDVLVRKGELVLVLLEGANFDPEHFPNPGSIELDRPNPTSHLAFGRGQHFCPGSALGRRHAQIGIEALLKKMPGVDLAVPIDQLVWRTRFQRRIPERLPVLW
Spike glycoprotein: Spike glycoprotein (Severe acute respiratory syndrome coronavirus 2, UniProt P0DTC2)
Nucleoprotein: Nucleoprotein (Severe acute respiratory syndrome coronavirus 2, UniProt P0DTC9)
gag capsid C-terminal domain: Gag polyprotein, capsid C-terminal domain (gag, UniProt P12493)
Chain of UniProt Q12809 (whole entry, looked up): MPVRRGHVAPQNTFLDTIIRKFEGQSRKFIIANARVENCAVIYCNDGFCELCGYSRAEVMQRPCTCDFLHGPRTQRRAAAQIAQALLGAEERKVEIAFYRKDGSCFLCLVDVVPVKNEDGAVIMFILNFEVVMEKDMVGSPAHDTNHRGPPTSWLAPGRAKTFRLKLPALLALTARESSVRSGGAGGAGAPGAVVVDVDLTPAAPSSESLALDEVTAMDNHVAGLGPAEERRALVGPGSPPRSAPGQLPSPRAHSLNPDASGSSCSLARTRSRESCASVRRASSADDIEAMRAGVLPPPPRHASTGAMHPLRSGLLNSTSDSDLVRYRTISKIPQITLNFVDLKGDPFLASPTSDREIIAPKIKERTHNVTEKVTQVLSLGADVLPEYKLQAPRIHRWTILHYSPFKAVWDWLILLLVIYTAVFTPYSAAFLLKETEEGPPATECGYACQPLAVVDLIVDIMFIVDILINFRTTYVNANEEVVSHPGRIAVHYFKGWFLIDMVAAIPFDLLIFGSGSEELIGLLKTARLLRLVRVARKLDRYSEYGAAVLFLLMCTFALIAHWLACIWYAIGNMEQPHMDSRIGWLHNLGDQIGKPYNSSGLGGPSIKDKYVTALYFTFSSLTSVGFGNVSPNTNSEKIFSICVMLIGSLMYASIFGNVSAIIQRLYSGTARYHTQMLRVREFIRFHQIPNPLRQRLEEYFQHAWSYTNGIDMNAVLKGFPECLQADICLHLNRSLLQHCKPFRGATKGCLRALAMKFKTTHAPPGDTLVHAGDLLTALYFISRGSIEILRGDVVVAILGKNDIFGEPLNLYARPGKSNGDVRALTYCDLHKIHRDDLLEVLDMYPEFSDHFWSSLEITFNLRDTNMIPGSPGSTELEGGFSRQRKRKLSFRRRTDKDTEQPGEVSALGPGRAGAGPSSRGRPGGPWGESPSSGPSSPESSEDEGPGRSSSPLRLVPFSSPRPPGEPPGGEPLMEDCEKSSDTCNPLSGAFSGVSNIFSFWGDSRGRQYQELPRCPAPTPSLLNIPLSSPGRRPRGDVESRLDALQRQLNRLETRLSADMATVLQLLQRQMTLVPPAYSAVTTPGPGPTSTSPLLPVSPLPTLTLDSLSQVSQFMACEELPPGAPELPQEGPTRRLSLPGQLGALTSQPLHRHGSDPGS
Chain of UniProt P0A8T7 (whole entry, looked up): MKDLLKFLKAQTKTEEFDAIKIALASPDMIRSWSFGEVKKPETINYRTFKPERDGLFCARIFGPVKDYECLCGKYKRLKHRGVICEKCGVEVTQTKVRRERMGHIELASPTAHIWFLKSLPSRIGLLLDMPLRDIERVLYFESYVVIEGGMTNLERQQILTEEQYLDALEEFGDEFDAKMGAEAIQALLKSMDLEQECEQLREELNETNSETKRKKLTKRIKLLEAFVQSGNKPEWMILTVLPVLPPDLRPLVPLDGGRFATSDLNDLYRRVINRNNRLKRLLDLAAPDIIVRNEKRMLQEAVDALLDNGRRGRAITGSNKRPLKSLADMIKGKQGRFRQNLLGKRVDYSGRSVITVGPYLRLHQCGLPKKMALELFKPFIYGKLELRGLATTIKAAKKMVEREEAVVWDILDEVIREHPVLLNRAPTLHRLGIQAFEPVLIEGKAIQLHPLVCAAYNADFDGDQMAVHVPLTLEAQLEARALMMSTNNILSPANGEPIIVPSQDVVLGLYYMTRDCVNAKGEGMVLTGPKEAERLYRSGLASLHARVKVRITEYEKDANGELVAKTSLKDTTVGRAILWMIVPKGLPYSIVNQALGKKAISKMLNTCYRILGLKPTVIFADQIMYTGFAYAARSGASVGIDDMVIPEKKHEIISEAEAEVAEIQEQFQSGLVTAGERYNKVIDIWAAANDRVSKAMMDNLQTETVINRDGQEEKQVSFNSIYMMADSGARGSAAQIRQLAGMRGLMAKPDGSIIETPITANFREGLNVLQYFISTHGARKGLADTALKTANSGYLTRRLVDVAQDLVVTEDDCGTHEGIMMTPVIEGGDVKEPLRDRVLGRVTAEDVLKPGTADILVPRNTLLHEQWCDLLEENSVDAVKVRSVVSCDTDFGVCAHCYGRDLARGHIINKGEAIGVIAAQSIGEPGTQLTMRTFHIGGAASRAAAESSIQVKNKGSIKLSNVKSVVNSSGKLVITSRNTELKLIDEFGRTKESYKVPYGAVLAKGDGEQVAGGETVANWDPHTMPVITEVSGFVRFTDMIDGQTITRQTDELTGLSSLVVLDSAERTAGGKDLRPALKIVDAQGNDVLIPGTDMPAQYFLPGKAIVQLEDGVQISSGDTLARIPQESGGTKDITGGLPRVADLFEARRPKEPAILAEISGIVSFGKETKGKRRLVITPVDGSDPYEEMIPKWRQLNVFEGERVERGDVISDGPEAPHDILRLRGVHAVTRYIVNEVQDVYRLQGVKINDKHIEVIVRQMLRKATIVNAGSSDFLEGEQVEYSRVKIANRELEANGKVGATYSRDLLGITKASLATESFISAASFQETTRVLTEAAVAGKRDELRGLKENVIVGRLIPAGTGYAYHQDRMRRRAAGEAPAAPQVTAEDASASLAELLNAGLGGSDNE
Chain of UniProt P0A8V2 (whole entry, looked up): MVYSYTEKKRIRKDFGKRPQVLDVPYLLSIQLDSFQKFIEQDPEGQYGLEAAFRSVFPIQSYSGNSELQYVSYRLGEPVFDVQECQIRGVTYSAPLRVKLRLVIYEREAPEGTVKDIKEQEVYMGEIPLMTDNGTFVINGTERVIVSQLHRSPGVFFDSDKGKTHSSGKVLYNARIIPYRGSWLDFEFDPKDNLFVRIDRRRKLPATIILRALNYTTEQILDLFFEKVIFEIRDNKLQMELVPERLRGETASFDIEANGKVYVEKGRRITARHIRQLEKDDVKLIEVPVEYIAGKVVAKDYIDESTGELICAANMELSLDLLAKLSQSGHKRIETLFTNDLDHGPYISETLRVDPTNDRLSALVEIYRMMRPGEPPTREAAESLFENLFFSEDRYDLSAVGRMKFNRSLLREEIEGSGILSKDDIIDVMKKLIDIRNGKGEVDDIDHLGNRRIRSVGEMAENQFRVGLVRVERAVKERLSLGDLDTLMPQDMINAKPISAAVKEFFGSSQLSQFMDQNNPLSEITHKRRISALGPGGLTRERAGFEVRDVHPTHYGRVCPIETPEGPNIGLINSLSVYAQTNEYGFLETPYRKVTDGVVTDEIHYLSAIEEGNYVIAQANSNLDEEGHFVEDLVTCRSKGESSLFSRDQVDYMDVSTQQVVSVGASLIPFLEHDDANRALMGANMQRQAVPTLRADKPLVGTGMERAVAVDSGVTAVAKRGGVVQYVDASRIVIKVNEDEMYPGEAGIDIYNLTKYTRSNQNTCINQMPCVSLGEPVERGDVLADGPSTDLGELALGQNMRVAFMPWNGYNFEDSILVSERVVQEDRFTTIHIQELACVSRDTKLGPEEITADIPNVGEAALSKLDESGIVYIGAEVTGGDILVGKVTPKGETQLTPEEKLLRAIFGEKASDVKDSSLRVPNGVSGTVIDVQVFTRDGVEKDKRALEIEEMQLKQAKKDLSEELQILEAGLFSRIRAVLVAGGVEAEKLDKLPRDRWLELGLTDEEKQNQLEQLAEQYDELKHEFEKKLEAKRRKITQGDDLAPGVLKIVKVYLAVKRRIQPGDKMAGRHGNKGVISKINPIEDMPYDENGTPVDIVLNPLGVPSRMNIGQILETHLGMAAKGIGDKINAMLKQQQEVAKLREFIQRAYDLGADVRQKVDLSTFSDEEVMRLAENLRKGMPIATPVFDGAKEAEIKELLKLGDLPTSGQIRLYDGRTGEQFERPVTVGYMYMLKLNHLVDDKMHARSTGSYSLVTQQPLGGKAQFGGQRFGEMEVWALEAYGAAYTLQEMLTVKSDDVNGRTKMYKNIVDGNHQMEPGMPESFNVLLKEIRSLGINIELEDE
Chain of UniProt P78348 (whole entry, looked up): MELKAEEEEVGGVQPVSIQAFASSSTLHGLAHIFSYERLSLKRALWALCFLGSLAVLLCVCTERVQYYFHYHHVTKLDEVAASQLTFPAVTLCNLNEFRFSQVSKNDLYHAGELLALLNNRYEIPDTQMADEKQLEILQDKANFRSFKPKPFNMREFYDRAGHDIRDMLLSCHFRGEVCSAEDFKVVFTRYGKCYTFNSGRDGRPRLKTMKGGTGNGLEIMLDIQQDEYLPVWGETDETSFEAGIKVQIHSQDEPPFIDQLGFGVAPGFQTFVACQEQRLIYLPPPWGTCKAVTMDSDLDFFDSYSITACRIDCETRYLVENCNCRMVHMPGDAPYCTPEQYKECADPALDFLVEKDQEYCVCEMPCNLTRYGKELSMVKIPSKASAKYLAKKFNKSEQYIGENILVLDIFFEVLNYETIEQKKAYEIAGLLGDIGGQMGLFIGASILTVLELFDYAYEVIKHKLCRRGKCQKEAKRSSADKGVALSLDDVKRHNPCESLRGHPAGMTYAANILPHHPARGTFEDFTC

`C=CC(c1ccc(-c2ccc3[nH]ccc3c2)cc1)n1ccnc1` (stereo not shown) gave a Kd of 3.5 ± 0.4 µM (cyp121; binding).
`CO[C@H]1/C=C/O[C@@]2(C)Oc3c(C)c(O)c4c(O)c(c(/C=N/N5CCN(C6CCCC6)CC5)c(O)c4c3C2=O)NC(=O)/C(C)=C\C=C\[C@H](C)[C@H](O)[C@@H](C)[C@@H](O)[C@@H](C)[C@H](OC(C)=O)[C@@H]1C` gave a Kd of 7.24 µM (Genome polyprotein, NS5 RdRp domain (Yellow fever virus, UniProt P03314)).
`C[C@@H]1[C@H]2[C@H](O[C@@H]3O[C@H](CO)[C@@H](O)[C@H](O)[C@H]3O)OC=C(C(=O)O)[C@H]2C[C@@H]1O` gave a Kd of 36.9 µM (Spike glycoprotein; binding, BLI).
With `Nc1ncnc2c([C@@H]3N[C@H](CO)[C@@H](O)[C@H]3O)c[nH]c12` the inhibition was 11.3% (Zaire ebolavirus; viral replication; HeLa, Kikwit; 6.3 µM).
`CC(C)=CCC[C@](C)(O[C@@H]1O[C@H](CO[C@@H]2O[C@H](CO)[C@@H](O)[C@H](O)[C@H]2O)[C@@H](O)[C@H](O)[C@H]1O)[C@H]1CC[C@]2(C)[C@@H]1[C@H](O)C[C@@H]1[C@@]3(C)CC[C@H](O[C@@H]4O[C@H](CO)[C@@H](O)[C@H](O)[C@H]4O)C(C)(C)[C@@H]3CC[C@]12C` gave a Kd of 117 µM (Spike glycoprotein; binding, BLI).
`CC[C@H]1CN2CCc3cc(OC)c(OC)cc3[C@@H]2C[C@@H]1C[C@H]1NCCc2cc(O)c(OC)cc21` gave a Kd of 53.8 µM (Nucleoprotein; binding, SPR).
For `CO[C@H]1C[C@@H]2CC[C@@H](C)[C@@](O)(O2)C(=O)C(=O)N2CCCC[C@H]2C(=O)O[C@H]([C@H](C)C[C@@H]2CC[C@@H](O)[C@H](OC)C2)CC(=O)[C@H](C)/C=C(\C)[C@@H](O)[C@@H](OC)C(=O)[C@H](C)C[C@H](C)/C=C/C=C/C=C/1C`, the Kd was 89.6 µM (Spike glycoprotein; binding, BLI).
`CCc1c(C(=O)C(N)=O)c2c(OCC(=O)O)cccc2n1Cc1ccccc1` — result for “time to death”: 0.13 h and 0.05 h and 0.08 h (Southeast population, mouse; 60 µg/mouse, preincubated with venom).
`C=CC1=C(C)C2=Cc3c(C=C)c(C)c4[n]3[Fe]([Cl])[n]3c(c(C)c(CCC(=O)O)c3=CC3=NC(=C4)C(C)=C3CCC(=O)O)=CC1=N2` has a Kd of 5.81 ± 0.6 µM (HmoA).
With `O=C(/C=C/c1ccc(O)c(O)c1)O[C@H]1[C@H](O)C[C@](O)(C(=O)O)C[C@H]1OC(=O)/C=C/c1ccc(O)c(O)c1` the Kd was 22.1 µM (Spike glycoprotein; binding, biolayer interferometry).
`COP(=O)(OC)OC=C(Cl)Cl` gave a Ki of greater than 5000 µM (rat CYP2D; bufuralol 1'-hydroxylation, non-competitive inhibitor; rat Sprague-Dawley, liver microsomes; 10 min, pH 7.4, with: bufuralol 4 to 134 µM).
`CC[C@H](C)[C@H](N)C(=O)N[C@H](C(=O)N[C@@H](Cc1ccccc1)C(=O)N[C@H]1CSc2ccc(c(C)c2)Oc2ccc(cc2C)SC[C@@H](C(=O)N[C@@H](Cc2ccc(O)cc2)C(=O)N[C@@H](Cc2ccc(O)cc2)C(=O)NCC(=O)N[C@@H](CCCCN)C(=O)N[C@@H](CCCCN)C(=O)N[C@@H](CCCCN)C(N)=O)NC(=O)[C@H](CC(C)C)NC(=O)[C@H](CC(C)C)NC(=O)[C@H](CC(=O)O)NC1=O)[C@@H](C)O` gave a Kd of greater than 100 µM (gag capsid C-terminal domain; binding, biolayer interferometry; PBS; pH 7.4, 30 °C, biotinylated peptide immobilised, with: C-CA 5 to 100 µM).
`C=CC(c1ccc(-c2ccc(O)c(Cl)c2)cc1)n1ccnc1` (stereo not shown) gave a Kd of 8.3 ± 1.7 µM (cyp121; binding).
With `CC[C@H](C)[C@@H]1NC(=O)[C@H](CCC(N)=O)NC(=O)[C@H](CCC(=O)O)NC(=O)[C@H](CCCNC(=N)N)NC(=O)[C@@H]2CCCN2C(=O)[C@H](CCCNC(=N)N)NC(=O)[C@H](CCCNC(=N)N)NC(=O)[C@H](Cc2ccc(O)cc2)NC(=O)CSC[C@@H](C(=O)NCC(N)=O)NC(=O)[C@H](Cc2ccccc2)NC(=O)[C@H](C(C)C)NC(=O)[C@H](Cc2c[nH]c3ccccc23)NC(=O)[C@H](CC(C)C)NC(=O)[C@H](CO)NC(=O)CNC(=O)[C@H]([C@@H](C)CC)NC(=O)[C@H]([C@@H](C)CC)NC1=O` the Kd was 0.046 µM (Spike glycoprotein).
The Kd of `CC[C@H](C)[C@H](N)C(=O)N[C@H](C(=O)N[C@@H](Cc1ccccc1)C(=O)N[C@H]1CSc2cc(C)c(cc2C)SC[C@@H](C(=O)N[C@@H](Cc2ccc(O)cc2)C(=O)N[C@@H](Cc2ccc(O)cc2)C(=O)NCC(=O)N[C@@H](CCCCN)C(=O)N[C@@H](CCCCN)C(=O)N[C@@H](CCCCN)C(N)=O)NC(=O)[C@H](CC(C)C)NC(=O)[C@H](CC(C)C)NC(=O)[C@H](CC(=O)O)NC1=O)[C@@H](C)O` is reported as 9.7 ± 0.4 µM (gag capsid C-terminal domain; binding, biolayer interferometry; PBS; pH 7.4, 30 °C, biotinylated peptide immobilised, with: C-CA 5 to 100 µM).
`O[C@H]1[C@H]2c3cc4c(cc3CN3CCC(=C[C@@H]1O)[C@H]23)OCO4` has a Kd of 58.2 µM (Nucleoprotein; binding, SPR).
Under “fast component amplitude”, `CC(=O)c1c(O)c(C)c(O)c(Cc2c(O)c3c(c(C(=O)/C=C/c4ccccc4)c2O)OC(C)(C)C=C3)c1O` is recorded as 47.3 ± 5% (KCNH2 (Homo sapiens, UniProt Q12809); potassium current, whole-cell patch clamp; HEK293 expressing hERG1; 15 µM, at -120 mV).
For `CNC(=O)[C@@H](NC(=O)[C@H](CC(C)C)[C@H](O)C(=O)NO)C(C)(C)C`, “remaining fibrinogen Aα chain” read 0.449 (human fibrinogen; SDS-PAGE; Daboia russelii; concentration not given, unit not given, with: MP venom; baseline: untreated fibrinogen).
`CC(=O)O[C@@H]1[C@H](N)[C@@H](OP(=O)(O)O)[C@@]2(C(=O)O)CS[C@@](O)(C(N)=O)[C@@H]1O2` gave a Kd of 0.84 ± 0.38 µM (DNA-directed RNA polymerase subunit beta' / DNA-directed RNA polymerase subunit beta (rpoC/rpoB, Escherichia coli, UniProt P0A8T7+P0A8V2); binding to elongation complex, 6-MI fluorescence titration; wild-type RNAP; 3′-deoxy RNA 3′-end Adenine).
`CC(C)=CCc1c(O)ccc(C(=O)/C=C/c2ccc(O)cc2)c1O` has a Kd of 8.8 µM (Spike glycoprotein; binding, biolayer interferometry).
`CC[C@H](C)[C@H](N)C(=O)N[C@H](C(=O)N[C@@H](Cc1ccccc1)C(=O)N[C@H]1CSc2cc(F)cc(c2)SC[C@@H](C(=O)N[C@@H](Cc2ccc(O)cc2)C(=O)N[C@@H](Cc2ccc(O)cc2)C(=O)NCC(=O)N[C@@H](CCCCN)C(=O)N[C@@H](CCCCN)C(=O)N[C@@H](CCCCN)C(N)=O)NC(=O)[C@H](CC(C)C)NC(=O)[C@H](CC(C)C)NC(=O)[C@H](CC(=O)O)NC1=O)[C@@H](C)O` gave a Kd of 21 ± 2.4 µM (gag capsid C-terminal domain; binding, biolayer interferometry; PBS; pH 7.4, 30 °C, biotinylated peptide immobilised, with: C-CA 5 to 100 µM).
`C=CC(c1ccc(-c2ccc3c(c2)OCO3)cc1)n1ccnc1` (stereo not shown) has a Kd of 6.7 ± 0.6 µM (cyp121; binding).
The Kd of `O=C(O)c1ccccc1-c1c2cc(Br)c(=O)cc-2oc2[c]([Hg+])c(O)c(Br)cc12` is reported as 1.33 µM (Replicase polyprotein 1ab, main protease (rep, Severe acute respiratory syndrome coronavirus 2, UniProt P0DTD1); binding, ITC; 25 °C, main binding site).
`Nc1ncnc2c1ncn2[C@H]1C[C@H](O)[C@@H](COP(=O)(O)OP(=O)(O)OP(=O)(O)O)O1` has a Km of 0.0866 ± 0.0138 µM (Gag-Pol polyprotein, reverse transcriptase (gag-pol, Human immunodeficiency virus type 1 group M subtype B, UniProt P04585, K653T); substrate; K66T mutant, with: matched T:A primer template).
`CC[C@H](C)[C@H](NC(=O)[C@H](CC(C)C)NC(=O)[C@H](Cc1c[nH]c2ccccc12)NC(=O)[C@H](CCC(N)=O)NC(=O)[C@@H](NC(=O)[C@H](Cc1ccccc1)NC(=O)[C@H](C)NC(=O)[C@H](CCCCNC(=O)COCCOCCNC(=O)COCCOCCNC(=O)CC[C@H](NC(=O)CCCCCCCCCCCCCCCCCCC(=O)O)C(=O)O)NC(=O)[C@H](CCC(N)=O)NC(=O)[C@H](C)NC(=O)[C@@H](NC(=O)[C@H](CCCCN)NC(=O)[C@H](CC(=O)O)NC(=O)[C@H](CC(C)C)NC(=O)C(C)(C)NC(=O)[C@@H](NC(=O)[C@H](CO)NC(=O)[C@H](Cc1ccc(O)cc1)NC(=O)[C@H](CC(=O)O)NC(=O)[C@H](CO)NC(=O)[C@@H](NC(=O)[C@H](Cc1ccccc1)NC(=O)[C@@H](NC(=O)CNC(=O)[C@H](CCC(=O)O)NC(=O)C(C)(C)NC(=O)[C@@H](N)Cc1ccc(O)cc1)[C@@H](C)O)[C@@H](C)O)[C@@H](C)CC)[C@@H](C)CC)C(C)C)C(=O)N[C@@H](C)C(=O)NCC(=O)NCC(=O)N1CCC[C@H]1C(=O)N[C@@H](CO)C(=O)N[C@@H](CO)C(=O)NCC(=O)N[C@@H](C)C(=O)N1CCC[C@H]1C(=O)N1CCC[C@H]1C(=O)N1CCC[C@H]1C(=O)N[C@@H](CO)C(N)=O` — result for “systolic blood pressure change”: 5.29 mmHg (healthy subjects, single ascending dose; 0.5 mg, day 29; baseline: baseline).
For `CC(C)=CCC[C@]1(C)C=Cc2c(O)c3c(c(CC=C(C)C)c2O1)O[C@]12C(=C[C@@H]4C[C@H]1C(C)(C)O[C@@]2(C/C=C(/C)C(=O)O)C4=O)C3=O`, the Kd was 27.2 µM (Spike glycoprotein; binding, BLI).
For `Cn1cnc(Cn2c(=O)[nH]/c(=N\c3cc4cn(C)nc4cc3Cl)n(Cc3cc(F)c(F)cc3F)c2=O)n1`, “terminal elimination rate constant” read 3.53e-06 s⁻¹ (human, moderate renal impairment, plasma; oral, 375 mg single dose).
The Kd of `CC[C@H](C)[C@H](NC(=O)[C@@H]1CCCN1C(=O)[C@H](C)NC(=O)[C@@H]1CSSC[C@@H]2NC(=O)[C@H](CC(=O)O)NC(=O)[C@H](CCCNC(=N)N)NC(=O)[C@H](CCC(=O)O)NC(=O)[C@H](CCCNC(=N)N)NC(=O)CNC(=O)[C@H](CC(=O)O)NC(=O)[C@@H]3CSSC[C@H](NC(=O)[C@H](CCC(=O)O)NC(=O)[C@H](CC(C)C)NC(=O)CNC(=O)[C@H](C)NC(=O)[C@H](CSSC[C@H](NC(=O)[C@H](Cc4ccccc4)NC(=O)[C@@H](N)CO)C(=O)N[C@@H](CC(C)C)C(=O)N[C@@H](C(C)C)C(=O)N[C@@H](CCCCN)C(=O)N[C@@H](Cc4c[nH]c5ccccc45)C(=O)N[C@@H](CCCCN)C(=O)N[C@@H](CCC(N)=O)C(=O)N3)NC2=O)C(=O)N[C@@H](Cc2c[nH]c3ccccc23)C(=O)N[C@@H](CCCCN)C(=O)N[C@@H](CCCNC(=N)N)C(=O)N[C@@H](CO)C(=O)N[C@@H](CCCNC(=N)N)C(=O)N[C@@H](CC(N)=O)C(=O)N[C@@H](CCCCN)C(=O)N[C@@H](CO)C(=O)N[C@@H](CO)C(=O)N[C@@H](C(C)C)C(=O)N1)C(=O)N[C@H](C(=O)O)[C@@H](C)O` is reported as 0.00211 µM (ASIC1 (Homo sapiens, UniProt P78348); binding, SPR; pH 7.5).

For quick reference, copied from above:
For `CC(C)=CCC[C@]1(C)C=Cc2c(O)c3c(c(CC=C(C)C)c2O1)O[C@]12C(=C[C@@H]4C[C@H]1C(C)(C)O[C@@]2(C/C=C(/C)C(=O)O)C4=O)C3=O`, the Kd was 27.2 µM (Spike glycoprotein; binding, BLI).
`O[C@H]1[C@H]2c3cc4c(cc3CN3CCC(=C[C@@H]1O)[C@H]23)OCO4` has a Kd of 58.2 µM (Nucleoprotein; binding, SPR).
